Experimental data from different studies.
A part holds a random share of what one study measured. Values joined by “and” are separate records of one study, mostly repeats; a detail may differ.
Sequence of UniProt Q9H3Y6 (whole entry, looked up): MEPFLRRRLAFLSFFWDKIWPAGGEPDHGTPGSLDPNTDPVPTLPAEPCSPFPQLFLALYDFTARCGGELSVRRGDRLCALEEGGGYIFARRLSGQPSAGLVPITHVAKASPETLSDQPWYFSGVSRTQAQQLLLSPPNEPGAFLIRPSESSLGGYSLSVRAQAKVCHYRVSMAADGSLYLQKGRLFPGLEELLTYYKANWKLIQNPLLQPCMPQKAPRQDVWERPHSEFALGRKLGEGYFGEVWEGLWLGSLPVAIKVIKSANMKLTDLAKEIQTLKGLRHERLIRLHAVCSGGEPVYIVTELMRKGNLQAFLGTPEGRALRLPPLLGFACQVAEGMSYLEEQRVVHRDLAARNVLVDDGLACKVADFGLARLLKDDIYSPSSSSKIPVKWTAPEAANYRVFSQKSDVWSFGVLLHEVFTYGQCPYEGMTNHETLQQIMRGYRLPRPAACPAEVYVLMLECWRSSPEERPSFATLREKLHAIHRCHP
Sequence of UniProt Q9Y6E0 (whole entry, looked up): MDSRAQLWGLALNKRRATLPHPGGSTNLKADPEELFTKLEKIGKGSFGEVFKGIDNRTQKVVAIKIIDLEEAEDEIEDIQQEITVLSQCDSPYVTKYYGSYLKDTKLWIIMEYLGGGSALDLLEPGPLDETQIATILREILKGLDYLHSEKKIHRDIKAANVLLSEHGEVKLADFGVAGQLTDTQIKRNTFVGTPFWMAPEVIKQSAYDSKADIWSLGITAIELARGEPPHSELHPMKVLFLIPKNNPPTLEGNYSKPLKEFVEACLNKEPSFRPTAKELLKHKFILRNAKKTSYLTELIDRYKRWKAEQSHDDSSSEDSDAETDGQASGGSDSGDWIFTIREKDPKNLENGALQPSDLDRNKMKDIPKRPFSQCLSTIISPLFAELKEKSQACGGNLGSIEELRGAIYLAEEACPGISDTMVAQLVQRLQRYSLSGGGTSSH
Sequence of UniProt Q52WX2 (whole entry, looked up): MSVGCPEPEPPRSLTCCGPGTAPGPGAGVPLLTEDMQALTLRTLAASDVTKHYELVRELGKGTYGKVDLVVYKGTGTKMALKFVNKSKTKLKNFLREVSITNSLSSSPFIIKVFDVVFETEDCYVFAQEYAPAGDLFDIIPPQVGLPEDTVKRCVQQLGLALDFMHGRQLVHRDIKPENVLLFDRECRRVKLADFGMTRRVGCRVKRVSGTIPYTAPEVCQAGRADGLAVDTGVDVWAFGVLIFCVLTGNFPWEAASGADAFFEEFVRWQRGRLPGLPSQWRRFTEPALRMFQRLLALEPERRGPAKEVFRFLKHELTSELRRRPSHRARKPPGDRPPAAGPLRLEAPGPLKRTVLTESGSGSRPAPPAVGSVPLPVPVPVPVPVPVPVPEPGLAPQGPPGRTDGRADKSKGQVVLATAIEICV
Sequence of UniProt P51957 (whole entry, looked up): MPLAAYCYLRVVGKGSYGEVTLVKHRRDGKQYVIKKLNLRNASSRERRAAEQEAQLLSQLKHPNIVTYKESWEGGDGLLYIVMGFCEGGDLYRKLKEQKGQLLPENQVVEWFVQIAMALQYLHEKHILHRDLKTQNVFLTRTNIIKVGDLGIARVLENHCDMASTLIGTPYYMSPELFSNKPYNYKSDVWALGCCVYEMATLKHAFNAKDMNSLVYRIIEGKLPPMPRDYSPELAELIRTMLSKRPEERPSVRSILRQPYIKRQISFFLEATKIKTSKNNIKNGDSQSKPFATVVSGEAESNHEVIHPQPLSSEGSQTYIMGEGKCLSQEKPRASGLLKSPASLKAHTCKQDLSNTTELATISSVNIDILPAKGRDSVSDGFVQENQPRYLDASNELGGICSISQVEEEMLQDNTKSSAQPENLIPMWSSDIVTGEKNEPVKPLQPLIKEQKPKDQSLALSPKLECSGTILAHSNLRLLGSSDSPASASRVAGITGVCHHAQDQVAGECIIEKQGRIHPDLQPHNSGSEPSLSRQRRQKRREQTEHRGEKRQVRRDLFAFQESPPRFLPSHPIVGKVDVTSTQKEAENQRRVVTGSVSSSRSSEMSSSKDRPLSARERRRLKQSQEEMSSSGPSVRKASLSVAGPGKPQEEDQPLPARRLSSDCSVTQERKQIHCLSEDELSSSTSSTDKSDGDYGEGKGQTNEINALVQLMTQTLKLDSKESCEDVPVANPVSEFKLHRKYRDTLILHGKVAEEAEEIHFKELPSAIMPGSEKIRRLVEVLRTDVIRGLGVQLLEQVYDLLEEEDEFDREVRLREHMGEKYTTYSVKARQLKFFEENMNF
Sequence of UniProt P50613 (whole entry, looked up): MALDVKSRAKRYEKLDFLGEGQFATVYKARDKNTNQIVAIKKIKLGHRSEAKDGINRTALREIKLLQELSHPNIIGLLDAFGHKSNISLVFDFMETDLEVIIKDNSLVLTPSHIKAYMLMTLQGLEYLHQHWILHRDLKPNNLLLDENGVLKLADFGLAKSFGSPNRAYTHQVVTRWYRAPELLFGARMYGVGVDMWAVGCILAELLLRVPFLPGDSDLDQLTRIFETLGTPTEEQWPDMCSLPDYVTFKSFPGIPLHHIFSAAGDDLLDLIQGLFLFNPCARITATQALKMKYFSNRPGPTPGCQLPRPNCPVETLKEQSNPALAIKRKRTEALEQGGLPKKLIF

Set 1 — read-out: enzyme activity; action: inhibitor; concentration: 10 µM
Target: Calcium/calmodulin-dependent protein kinase type II subunit alpha (CAMK2A, Homo sapiens, UniProt Q9UQM7)
Sequence of UniProt Q9UQM7 (whole entry, looked up): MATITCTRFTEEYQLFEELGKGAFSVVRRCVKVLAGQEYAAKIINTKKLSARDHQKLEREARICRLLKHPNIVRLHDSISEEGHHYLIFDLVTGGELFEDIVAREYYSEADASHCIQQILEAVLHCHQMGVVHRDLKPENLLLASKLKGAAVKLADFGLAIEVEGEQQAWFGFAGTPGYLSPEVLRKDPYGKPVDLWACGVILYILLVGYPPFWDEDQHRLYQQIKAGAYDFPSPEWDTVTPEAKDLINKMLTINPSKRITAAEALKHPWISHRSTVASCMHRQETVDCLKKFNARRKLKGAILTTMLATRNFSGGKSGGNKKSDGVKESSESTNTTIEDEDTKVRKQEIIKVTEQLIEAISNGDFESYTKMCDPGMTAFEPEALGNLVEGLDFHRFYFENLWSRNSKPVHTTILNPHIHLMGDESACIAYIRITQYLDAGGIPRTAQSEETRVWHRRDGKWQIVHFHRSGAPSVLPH
SMILES	inhibition [%]
CCCCCCOC(=O)CCC(=O)CN	4
CCn1cc(C(=O)O)c(=O)c2cc(F)c(N3CCNC(C)C3)c(F)c21 (centres unmarked)	-1
Cc1cn([C@H]2C[C@H](N=[N+]=[N-])[C@@H](CO)O2)c(=O)[nH]c1=O	-11
CC(C)c1nc(N(C)S(C)(=O)=O)nc(-c2ccc(F)cc2)c1/C=C/[C@@H](O)C[C@@H](O)CC(=O)O	-4
Oc1ccc(OCc2ccccc2)cc1	1
O=C(O)c1cc(O)c2c(c1)C(=O)c1cccc(O[C@@H]3O[C@H](CO)[C@@H](O)[C@H](O)[C@H]3O)c1C2=O	-12
O[C@]12CO[C@H](c3ccc4c(c3)OCO4)[C@H]1CO[C@@H]2c1ccc2c(c1)OCO2	-10
CCCCCCCCCCCCCCCCCC(=O)O	-11
CCOc1nc2cccc(C(=O)OCc3oc(=O)oc3C)c2n1Cc1ccc(-c2ccccc2-c2noc(=O)[nH]2)cc1	-2
Cc1cc2c(cc1CC(=O)c1sccc1S(=O)(=O)Nc1onc(C)c1Cl)OCO2	-9
CCCCCCCCC[C@H](O)CC(=O)CCc1ccc(O)c(OC)c1	10
O=C1CCCCO1	4
C=C1C(=O)O[C@H]2[C@H]1CC[C@]1(C)O[C@@]13CC[C@@](C)(O)[C@H]23	-4

Set 2 — concentration: 1 µM
SMILES: COc1ccc2[nH]c3c4[nH]c5ccc(OC)cc5c4c4c(c3c2c1)C(=O)NC4=O
target	method	measured	notes	relative to	remaining binding
Cyclin-dependent kinase 7 (CDK7, Homo sapiens, UniProt P50613)	competitive binding panel			vehicle	56%
Mitogen-activated protein kinase kinase kinase 4 (MAP3K4, Homo sapiens, UniProt Q9Y6R4)	competitive binding panel			vehicle	100%
Serine/threonine-protein kinase 24 (STK24, Homo sapiens, UniProt Q9Y6E0)	competitive binding panel	MST3		vehicle	76%
Inhibitor of nuclear factor kappa-B kinase subunit epsilon (IKBKE, Homo sapiens, UniProt Q14164)	competitive binding		IKK-epsilon		48%
Serine/threonine-protein kinase Nek4 (NEK4, Homo sapiens, UniProt P51957)	competitive binding panel			vehicle	85%
cAMP-dependent protein kinase catalytic subunit beta (PRKACB, Homo sapiens, UniProt P22694)	competitive binding		PKAC-beta		89%
Platelet-derived growth factor receptor beta (PDGFRB, Homo sapiens, UniProt P09619)	competitive binding panel			vehicle	0.1%
Mitogen-activated protein kinase kinase kinase 10 (MAP3K10, Homo sapiens, UniProt Q02779)	competitive binding panel	MLK2		vehicle	83%
Calcium/calmodulin-dependent protein kinase type 1 (CAMK1, Homo sapiens, UniProt Q14012)	competitive binding panel			vehicle	80%
Calcium/calmodulin-dependent protein kinase type II subunit alpha (CAMK2A, Homo sapiens, UniProt Q9UQM7)	competitive binding panel			vehicle	70%
Serine/threonine-protein kinase BRSK2 (BRSK2, Homo sapiens, UniProt Q8IWQ3)	competitive binding panel			vehicle	6.2%
Serine/threonine-protein kinase SBK1 (SBK1, Homo sapiens, UniProt Q52WX2)	competitive binding panel			vehicle	95%
RAC-beta serine/threonine-protein kinase (AKT2, Homo sapiens, UniProt P31751)	competitive binding panel			vehicle	84%
Tyrosine-protein kinase Srms (SRMS, Homo sapiens, UniProt Q9H3Y6)	competitive binding panel			vehicle	100%
Ephrin type-B receptor 1 (EPHB1, Homo sapiens, UniProt P54762)	competitive binding panel			vehicle	77%

Set 3 — cell line: normal organoid sample D; method: CellTiter-Glo; species: human; medium: normal-adjacent epithelium; concentration: 0.1 µM; relative to: DMSO
SMILES	viability
COc1ccc2cc(OCC3(C(=O)O)CN(C(=O)c4ccc(F)cc4)C3)ccc2c1	118% and 97.3%
O=C(Nc1ccc(Oc2ccc(F)cc2)cc1)N1CCc2ncccc2[C@H]1c1ccc(F)cc1	101% and 108%
CS(=O)(=O)NCC[C@H](NC(=O)c1cncc2c1cnn2-c1ccc(F)cc1)c1ccnc(S(C)(=O)=O)c1	106% and 98.1%
O=C(c1ccc(F)cc1)N1CC(COc2ccc(Br)cc2)(C(=O)O)C1	109% and 96.4%
Cc1c[nH]c2nccc(Oc3c(F)cc(Nc4cc(Cl)nc(N)n4)cc3F)c12	115% and 126%
CC(C)CC(=O)N1CCc2nc(-c3ccc(Br)cc3)nc(N(C)Cc3ccccc3)c2C1	108% and 127%
COCCOc1nc(-c2ccc(Cl)nc2)nc2c1CN(C(=O)c1ncn3ccccc13)CC2	115% and 123%

Set 4 — read-out: enzyme activity; action: inhibitor; concentration: 0.5 µM; relative to: control
Target: Serine/threonine-protein kinase MRCK alpha (CDC42BPA, Homo sapiens, UniProt Q5VT25)
Sequence of UniProt Q5VT25 (whole entry, looked up): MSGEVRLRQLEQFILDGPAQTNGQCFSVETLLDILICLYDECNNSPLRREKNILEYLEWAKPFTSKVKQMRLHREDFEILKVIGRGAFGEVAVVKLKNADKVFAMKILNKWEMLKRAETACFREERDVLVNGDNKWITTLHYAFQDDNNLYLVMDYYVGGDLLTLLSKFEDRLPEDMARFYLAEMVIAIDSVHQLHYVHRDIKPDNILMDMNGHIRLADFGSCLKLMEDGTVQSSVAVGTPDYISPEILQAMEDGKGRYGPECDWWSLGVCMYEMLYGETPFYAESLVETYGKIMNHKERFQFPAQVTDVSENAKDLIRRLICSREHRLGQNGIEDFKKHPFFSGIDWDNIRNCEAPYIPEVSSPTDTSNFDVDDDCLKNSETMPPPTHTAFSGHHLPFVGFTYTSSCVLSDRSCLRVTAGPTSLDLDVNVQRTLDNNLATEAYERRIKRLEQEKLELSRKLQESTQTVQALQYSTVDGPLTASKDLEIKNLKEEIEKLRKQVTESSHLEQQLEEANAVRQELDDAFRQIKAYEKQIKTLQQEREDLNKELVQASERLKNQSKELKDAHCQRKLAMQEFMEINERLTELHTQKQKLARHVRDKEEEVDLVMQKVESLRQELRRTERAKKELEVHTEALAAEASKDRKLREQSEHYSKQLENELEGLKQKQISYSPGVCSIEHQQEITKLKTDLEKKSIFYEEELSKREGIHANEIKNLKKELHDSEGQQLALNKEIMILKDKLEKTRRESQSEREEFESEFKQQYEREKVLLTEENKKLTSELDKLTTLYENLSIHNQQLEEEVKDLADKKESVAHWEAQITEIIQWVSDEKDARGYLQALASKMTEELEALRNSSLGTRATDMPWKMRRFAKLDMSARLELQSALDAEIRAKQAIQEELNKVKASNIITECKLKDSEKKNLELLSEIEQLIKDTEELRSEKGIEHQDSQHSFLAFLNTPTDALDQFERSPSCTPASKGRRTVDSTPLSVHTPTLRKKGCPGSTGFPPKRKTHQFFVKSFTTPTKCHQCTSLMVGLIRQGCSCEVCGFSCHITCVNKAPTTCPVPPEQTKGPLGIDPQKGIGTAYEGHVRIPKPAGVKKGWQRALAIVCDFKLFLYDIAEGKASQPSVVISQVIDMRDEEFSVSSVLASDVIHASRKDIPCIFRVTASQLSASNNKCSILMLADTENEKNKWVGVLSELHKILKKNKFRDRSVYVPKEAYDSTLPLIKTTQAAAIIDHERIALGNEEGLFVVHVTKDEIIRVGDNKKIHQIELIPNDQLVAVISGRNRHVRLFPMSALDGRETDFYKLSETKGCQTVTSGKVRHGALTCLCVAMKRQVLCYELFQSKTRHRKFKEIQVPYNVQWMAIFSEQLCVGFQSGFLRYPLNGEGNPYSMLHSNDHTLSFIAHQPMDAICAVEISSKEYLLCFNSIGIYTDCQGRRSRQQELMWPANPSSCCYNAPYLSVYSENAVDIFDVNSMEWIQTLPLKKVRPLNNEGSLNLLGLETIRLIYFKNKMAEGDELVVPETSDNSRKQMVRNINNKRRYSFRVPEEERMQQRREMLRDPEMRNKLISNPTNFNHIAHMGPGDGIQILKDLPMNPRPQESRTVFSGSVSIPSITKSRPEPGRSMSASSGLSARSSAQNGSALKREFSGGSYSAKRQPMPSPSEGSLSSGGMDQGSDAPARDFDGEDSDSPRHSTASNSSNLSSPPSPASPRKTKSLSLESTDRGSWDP
SMILES	remaining activity [%]
Ic1cccc(CSc2nnc(-c3ccncc3)o2)c1	98.4
O=c1cc(-c2cccc3c2Sc2ccccc2S3)oc(N2CCOCC2)c1	106
O=C1c2ccccc2-c2n[nH]c3cccc1c23	102
COc1cc2ncnc(Nc3cccc(Cl)c3)c2cc1OC	82.2
Cc1nc2cc3nc(-c4cccs4)cnc3cc2n1C	109
Cn1nc2c3c(cccc31)C(=O)c1ccccc1-2	106
O=C(NC(NC(=S)Nc1ccc(F)c([N+](=O)[O-])c1)C(Cl)(Cl)Cl)C(c1ccccc1)c1ccccc1 (centres unmarked)	111
Cc1cc2ncc(-c3ccccc3)nc2cc1C	81.2
N#C/C(=C\c1ccc(O)c(O)c1)C(=O)NCc1ccccc1	99.4
O=C1C(Cl)=C(N2C(=O)CCC2=O)C(=O)c2ccccc21	103
CN(C)C[C@H]1CCn2c(c(C3=C(c4cn(C)c5ccccc45)C(=O)NC3=O)c3ccccc32)C1	98.1
COc1cc2c(cc1OC)-c1[nH]nc(Nc3cccc(F)c3)c1C2	119
N#Cc1c(NC(=O)c2cccc3ccccc23)sc2c1CCCC2	103
COc1cc2ncnc(Nc3ccc(O)c(Br)c3)c2cc1OC	96.9
CCN(CC)CCNC(=O)c1c(C)[nH]c(/C=C2\C(=O)Nc3ccc(F)cc32)c1C	89.5
CCN(CC)CCNC(=O)c1c(C)[nH]c(/C=C2\C(=O)Nc3ccc(Cl)cc32)c1C	60
Cc1cn(-c2cc(NC(=O)c3ccc(C)c(Nc4nccc(-c5cccnc5)n4)c3)cc(C(F)(F)F)c2)cn1	88.5
O=C(Nc1cccc(Nc2nccc(Nc3cccc(C(F)(F)F)c3)n2)c1)C1CC1	100
c1ccc(-c2cnc(Nc3ccc(OCCN4CCCC4)cc3)s2)cc1	91
CCOc1nc(NC(=O)Cc2cc(OC)ccc2OC)cc(N)c1C#N	98.9
CN([C@@H](Cc1ccc(OS(=O)(=O)c2cccc3cnccc23)cc1)C(=O)N1CCN(c2ccccc2)CC1)S(=O)(=O)c1cccc2cnccc12	98.9
CCN(CC)C(=O)c1ccc(Nc2nc(OCC3CCCCC3)c3[nH]cnc3n2)cc1	90.7
C[C@@H]1CCN(C(=O)CC#N)C[C@@H]1N(C)c1ncnc2[nH]ccc12	110
Nc1cccc(-c2cc3c(Oc4cccc(O)c4)ncnc3[nH]2)c1	87.7

Repeated from above (set 1):
SMILES	inhibition [%]
CC(C)c1nc(N(C)S(C)(=O)=O)nc(-c2ccc(F)cc2)c1/C=C/[C@@H](O)C[C@@H](O)CC(=O)O	-4
Oc1ccc(OCc2ccccc2)cc1	1
O=C(O)c1cc(O)c2c(c1)C(=O)c1cccc(O[C@@H]3O[C@H](CO)[C@@H](O)[C@H](O)[C@H]3O)c1C2=O	-12
O[C@]12CO[C@H](c3ccc4c(c3)OCO4)[C@H]1CO[C@@H]2c1ccc2c(c1)OCO2	-10
CCCCCCCCCCCCCCCCCC(=O)O	-11
CCOc1nc2cccc(C(=O)OCc3oc(=O)oc3C)c2n1Cc1ccc(-c2ccccc2-c2noc(=O)[nH]2)cc1	-2
Cc1cc2c(cc1CC(=O)c1sccc1S(=O)(=O)Nc1onc(C)c1Cl)OCO2	-9
CCCCCCCCC[C@H](O)CC(=O)CCc1ccc(O)c(OC)c1	10
